Literature values as cited in several papers.
Protocols differ between the studies behind these lines. ± gives the spread as reported. ≈ marks a conversion by molar mass, not a printed value.
Sequence of UniProt Q9P0L2 (whole entry, looked up): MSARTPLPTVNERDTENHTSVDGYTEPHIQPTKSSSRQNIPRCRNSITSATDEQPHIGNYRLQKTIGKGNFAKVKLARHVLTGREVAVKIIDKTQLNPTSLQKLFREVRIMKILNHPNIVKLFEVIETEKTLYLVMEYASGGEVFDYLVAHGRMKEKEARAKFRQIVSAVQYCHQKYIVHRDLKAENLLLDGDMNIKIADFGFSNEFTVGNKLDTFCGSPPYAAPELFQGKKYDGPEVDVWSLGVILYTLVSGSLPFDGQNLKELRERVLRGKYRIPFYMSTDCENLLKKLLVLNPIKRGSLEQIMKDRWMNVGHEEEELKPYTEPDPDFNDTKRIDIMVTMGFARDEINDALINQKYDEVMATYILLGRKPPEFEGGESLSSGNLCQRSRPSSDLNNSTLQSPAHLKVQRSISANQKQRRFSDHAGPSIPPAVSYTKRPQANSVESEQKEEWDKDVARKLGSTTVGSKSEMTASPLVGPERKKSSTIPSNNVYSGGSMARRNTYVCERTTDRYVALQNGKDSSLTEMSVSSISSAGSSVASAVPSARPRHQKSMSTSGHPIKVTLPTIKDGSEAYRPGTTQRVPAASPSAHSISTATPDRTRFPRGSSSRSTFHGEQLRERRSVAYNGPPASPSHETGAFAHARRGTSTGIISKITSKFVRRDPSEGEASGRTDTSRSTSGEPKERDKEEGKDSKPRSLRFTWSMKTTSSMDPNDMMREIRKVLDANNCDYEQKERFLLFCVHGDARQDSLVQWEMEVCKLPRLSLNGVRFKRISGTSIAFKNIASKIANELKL

| Structure (SMILES) | tested on | test | test system | conditions | scale | quantity | value |
| --- | --- | --- | --- | --- | --- | --- | --- |
| CC1(C)S[C@@H]2[C@H](NC(=O)[C@H](N)c3ccccc3)C(=O)N2[C@H]1C(=O)O | Klebsiella pneumoniae | – | clinical isolate RKI 373/16-1 | – | – | MIC | 16 µg/mL (≈ 45.8 µM) |
| [N-]=[N+]=N[C@]1(CO)O[C@@H](n2ccc(N)nc2=O)[C@@H](F)[C@@H]1O | C8166 | – | – | – | – | CC50 | > 100 µM |
| COc1ccccc1OCC(O)CN1CCN(CC(=O)Nc2c(C)cccc2C)CC1 (stereo not drawn) | HepG2 | mitochondrial membrane potential | – | concentration not given, Tox21 | – | activity outcome | inactive |
| CC(=O)O[C@H]1C(=O)[C@@]2(C)[C@H]([C@H](OC(=O)c3ccccc3)[C@]3(O)C[C@H](OC(=O)[C@H](O)[C@@H](NC(=O)c4ccccc4)c4ccccc4)C(C)=C1C3(C)C)[C@]1(OC(C)=O)CO[C@@H]1C[C@@H]2O | HCT-116 | cytotoxicity | – | – | – | IC50 | 0.00327 µM |
| O=C1NC(=O)/C(=C/c2ccc3ncnc(N4CCC(F)(F)CC4)c3n2)S1 | Caco-2 | – | – | – | – | efflux ratio | 1.6 |
| O=C1Oc2ccc3ccccc3c2C1c1c[nH]c2ccccc12 (stereo not drawn) | COLO 320 ABCB1-overexpressing | cell viability | – | – | – | IC50 | > 100 µM |
| Nc1cc(C(F)(F)F)c(-c2nc(N3CCOCC3)nc(N3CCOCC3)n2)cn1 | MARK1 (Homo sapiens, UniProt Q9P0L2) | enzyme activity | – | 10 µM | baseline: untreated | remaining activity | 75% |
| CN(C)C/C=C/C(=O)Nc1cc2c(Nc3ccc(F)c(Cl)c3)ncnc2cc1O[C@H]1CCOC1 | Caco-2 | – | – | 3 µM | – | Papp B to A | 8.69 ± 0.83 ×10⁻⁶ cm/s |
| N=C(CC(O)c1cc2c(F)cc(F)cc2c2cc(C(F)(F)F)ccc12)Nc1ccc(F)cc1 (stereo not drawn) | HepG2 | – | – | – | – | CC50 | 20.7 ± 2.2 µM |
| CN(C)c1ccc(C(=O)N(CC(=O)NCc2ccccc2)Cc2ccc(C(=O)Nc3ccccc3N)cc2)cc1 | A2780cisR | cell viability, MTT | – | 72 h | – | IC50 | 8.28 ± 0.78 µM |
| NC(=O)N1c2ccccc2C=Cc2ccccc21 | HepG2 | mitochondrial membrane potential | – | concentration not given, Tox21 | – | activity outcome | inactive |
| C=CCCC(=O)O | mouse 3T3 fibroblasts | cell viability | – | unbound medium concentration | – | IC10 | 78 µM |
| CC[C@H]1OC(=O)[C@H](C)[C@@H](O[C@H]2C[C@@](C)(OC)[C@@H](O)[C@H](C)O2)[C@H](C)[C@@H](O[C@@H]2O[C@H](C)C[C@H](N(C)C)[C@H]2O)[C@](C)(O)C[C@@H](C)C(=O)[C@H](C)[C@@H](O)[C@]1(C)O | HepG2 | mitochondrial membrane potential | – | concentration not given, Tox21 | – | activity outcome | inactive |
| Nc1ccccc1NC(=O)c1ccc(CNC(=O)OCc2cccnc2)cc1 | Cal27CisR | cell viability, MTT | – | 72 h | – | IC50 | 3.63 ± 0.3 µM |
| CCC(CC)COC(=O)[C@H](C)N[P@](=O)(OC[C@H]1O[C@@](C#N)(c2ccc3c(N)ncnn23)[C@H](O)[C@@H]1O)Oc1ccccc1 | Huh-7 | cytotoxicity | – | – | – | CC50 | 1.4 ± 0.5 µM |
| CC(C)(c1ccc(O)cc1)c1ccc(O)cc1 | C3A | micronucleus formation | – | – | – | lowest micronucleus-inducing concentration | ≥ 40 µM |
| Cc1cnc(N2CC3(CCOCC3)C2)c(C(=O)Nc2ccc(C(=O)N3CCc4cc(C(=O)Nc5c(C)cccc5F)sc4-c4ccccc43)cc2)c1 | HEp-2 | – | – | no effect at tested concentrations | – | cytotoxic concentration | > 10 µg/mL |
| COc1cc2nc(N(C)CCCNC(=O)C3CCCO3)nc(N)c2cc1OC (stereo not drawn) | HepG2 | mitochondrial membrane potential | – | concentration not given, Tox21 | – | activity outcome | inactive |

| Structure (SMILES) | tested on | test | test system | conditions | scale | quantity | value |
| --- | --- | --- | --- | --- | --- | --- | --- |
| CC1=C(/C=C/C(C)=C/C=C/C(C)=C/C(=O)O)C(C)(C)CCC1 | mouse embryonic stem cells | – | – | – | – | lowest concentration disrupting development | ≥ 4 nM |
| COc1ccccc1OCCNCC(O)COc1cccc2[nH]c3ccccc3c12 (stereo not drawn) | HepG2 | mitochondrial membrane potential | – | concentration not given, Tox21 | – | mitochondrial toxicity | active |
| CCCC(C)C(=O)O (stereo not drawn) | mouse 3T3 fibroblasts | cell viability | – | unbound medium concentration | – | IC10 | 1760 µM |
| O=C(O)c1[nH]c2ccccc2c1C1NCCc2ccccc21 (stereo not drawn) | COLO 320 ABCB1-resistant colon | cytotoxicity | – | – | – | IC50 | 53.6 µM |
| C[C@H]1COCCN1c1nc(-c2cnc(N)cc2C(F)F)nc(N2CCOCC2)n1 | COLO 205 | – | – | – | – | GI50 | 0.642 µM |
| COc1cccc2c1C(=O)c1c(O)c3c(c(O)c1C2=O)C[C@@](O)(C(=O)CO)C[C@@H]3O[C@H]1C[C@H](N)[C@H](O)[C@H](C)O1 | COLO 320 ABCB1-overexpressing | cell viability | – | – | – | IC50 | 3.07 µM |
| Cc1nc2n(c(=O)c1CCN1CCC(c3noc4cc(F)ccc34)CC1)CCCC2 | HepG2 | mitochondrial membrane potential | – | concentration not given, Tox21 | – | activity outcome | inactive |
| CCC(C)n1ncn(-c2ccc(N3CCN(c4ccc(OCC5COC(Cn6cncn6)(c6ccc(Cl)cc6Cl)O5)cc4)CC3)cc2)c1=O (stereo not drawn) | MDCK | – | – | – | – | apparent permeability | 57.1 ×10⁻⁶ cm/s |
| O=C(O)CSc1nnc(Br)n1-c1ccc(C2CC2)c2ccccc12 | HepG2 | mitochondrial membrane potential | – | concentration not given, Tox21 | – | activity outcome | inactive |
| Cc1nc(-c2nnc3n2CCN(C(=O)c2ccc(-c4cccs4)cc2)[C@@H]3C)cs1 | Caco-2 | – | – | 0.1% BSA | – | Papp A to B | 48.2 ×10⁻⁶ cm/s |
| N#C/C=C/c1ccc2c(S(=O)(=O)n3nc(Nc4ccc(C#N)c(Cl)c4)nc3N)cccc2c1 | mouse neurons | – | – | – | – | TC50 | > 100 µM |
| O=C(c1nc(-c2c[nH]c3cc(Br)ccc23)c[nH]1)c1c[nH]c2cc(O)ccc12 | NSCLC-N6 | cytotoxicity | – | – | – | IC50 | 12 µg/mL |
| Cc1nc2n(c(=O)c1CCN1CCC(c3noc4cc(F)ccc34)CC1)CCCC2O (stereo not drawn) | HepG2 | mitochondrial membrane potential | – | concentration not given, Tox21 | – | activity outcome | inactive |
| C/N=C(\C)c1c(O)c2ccccc2oc1=O | HL-60 | – | – | – | – | cytotoxicity | 408 µM |
| CCNC(=O)c1cc2c(-c3cc(C(C)(C)O)ccc3Oc3c(C)cc(F)cc3C)cn(C)c(=O)c2[nH]1 | megakaryocyte colony-forming units | colony formation | – | – | – | EC50 | 0.645 µM |
| [Cl-].[Cl-].[Mo+4].c1cc[cH-]c1.c1cc[cH-]c1 | CAKI-1 | cytotoxicity | – | 48 h | – | IC50 | > 290 µM |
| C=CCC(CCC)C(=O)O (stereo not drawn) | mouse 3T3 fibroblasts | cell viability | – | unbound medium concentration | – | IC10 | 229 µM |
| CNC(C)C1CCC(N)C(OC2C(N)CC(N)C(OC3OCC(C)(O)C(NC)C3O)C2O)O1 (stereo not drawn) | Klebsiella pneumoniae | – | clinical isolate RKI-No_93/10 | – | – | MIC | > 8 µg/mL |

A few entries again:
| Structure (SMILES) | tested on | test | test system | conditions | scale | quantity | value |
| --- | --- | --- | --- | --- | --- | --- | --- |
| CN(C)C/C=C/C(=O)Nc1cc2c(Nc3ccc(F)c(Cl)c3)ncnc2cc1O[C@H]1CCOC1 | Caco-2 | – | – | 3 µM | – | Papp B to A | 8.69 ± 0.83 ×10⁻⁶ cm/s |
| N=C(CC(O)c1cc2c(F)cc(F)cc2c2cc(C(F)(F)F)ccc12)Nc1ccc(F)cc1 (stereo not drawn) | HepG2 | – | – | – | – | CC50 | 20.7 ± 2.2 µM |
